Published values from different studies.
Every numbered part comes from another study and shows a few of its results, in no order.

Series 1
Target: RNA binding protein fox-1 homolog 2, RRM domain, GST-SBP tag (RBFOX2, Homo sapiens, UniProt O43251-10, residues 100-194)
Technique: RNA Bind-n-Seq
Form: RNA
Sample: in vitro
Concentration: 365 nM
Notes: natural RNA segment, single round, ends assumed
Relative to: no-protein control
Reading: higher = stronger binding
Measurement: RBNS enrichment (R)
Residues (chain): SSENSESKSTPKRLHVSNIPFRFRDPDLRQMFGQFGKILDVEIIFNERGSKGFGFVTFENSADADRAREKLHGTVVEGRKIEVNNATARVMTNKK
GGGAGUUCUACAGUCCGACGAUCGGUGUCACAAUGUAGGGUACCAAGGGUUGGAUUGUGAUGGGGCAUGGUCGUACACUGCUCAUUGUGCCACAGGUGUGACUGGAAAGCAUGAUAUUCUAGGGUUGGUUUGUUGGAAUUCUCGGGUGCCAA: 14
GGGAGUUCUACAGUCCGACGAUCAACAUGAGGGGCUUCCAUUUUCUGUGUUUUGUAAGGGAACUGUUUCCUUCAUGCCGCCAUGUUCCUGAUAUUAGUUCUGAUUUCUUUUUAACAAAUGUUAUCAUGAUUAAUGGAAUUCUCGGGUGCCAA: 0.449
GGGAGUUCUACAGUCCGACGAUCUUCCCGGAAAAAAAAAAAUGCAAUAAUGGGAAUGAUUUGGGGCUUUUAUUUUUUAUUUUAAAAGAAUAUUGACUUAUUUAGCACAAGCUAUUUUUCCCUCUCUGGUGAUAUGGAAUUCUCGGGUGCCAA: 1.21
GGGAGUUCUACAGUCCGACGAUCUUUUAACUCUUGUCUUCUGUGAGUUUUCCGUCCUCUGUAGUCACGUGCCUGCACACCGUUCUCUCCACCCUGCCUCCUUCCCACAGCAGAAGCAGGGCUCCACCCAGGCCUGGAAUUCUCGGGUGCCAA: 1.09
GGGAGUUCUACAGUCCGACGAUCGAAAAAAAAAUCUCACAAGUUCUUUUGGAACUUGUUUCAAGCCAAAAACUCUCAAGAAAGCAAAUUGCACCUCAGCUGGAUUGAUUUCCAAAUGCUAGCAUGUACUGUAUUGGAAUUCUCGGGUGCCAA: 22.2
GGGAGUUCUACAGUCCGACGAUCAUGGAGCAGGGAAGUACAGAGUGGGAUGGUCAGGACCUGGGCCAUUGCAACCAAAAUGGGGACUUCCUGGGUAGGGAGGUCACUCCCUCUACUCACUGAGCUAGGAUUAGUGGAAUUCUCGGGUGCCAA: 0.4
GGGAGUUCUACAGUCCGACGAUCGCCCAGAUUUCUCUUGACACCAGAAGAUGCUGAGCAAUGGUGUCAAAGGACCAGCUCCACACUGCCCCCUGCAGUUGAAUAGUGGACAGUAGCUGGUGUGACUGAACAGCUGGAAUUCUCGGGUGCCAA: 0.261
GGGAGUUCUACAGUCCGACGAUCUGGGUGGAUCACCAGAGGUCAGGAGUUCGAGACCAGCCCAGCCAACAUGGCAAAACCCCAUCUCUACUAAAAAUACAAAAAUGAGCUAGGCAUGGUGGCACACGCCUGUAUGGAAUUCUCGGGUGCCAA: 0.835

Series 2
Target: Interferon regulatory factor 7, full length, phosphomimetic (IRF7, Homo sapiens, UniProt Q92985, residues 1-503, S471D/S472D/S475D/S476D/S477D/S483D/S484D/S487D)
Sequence of UniProt Q92985 (whole entry, unmodified, looked up): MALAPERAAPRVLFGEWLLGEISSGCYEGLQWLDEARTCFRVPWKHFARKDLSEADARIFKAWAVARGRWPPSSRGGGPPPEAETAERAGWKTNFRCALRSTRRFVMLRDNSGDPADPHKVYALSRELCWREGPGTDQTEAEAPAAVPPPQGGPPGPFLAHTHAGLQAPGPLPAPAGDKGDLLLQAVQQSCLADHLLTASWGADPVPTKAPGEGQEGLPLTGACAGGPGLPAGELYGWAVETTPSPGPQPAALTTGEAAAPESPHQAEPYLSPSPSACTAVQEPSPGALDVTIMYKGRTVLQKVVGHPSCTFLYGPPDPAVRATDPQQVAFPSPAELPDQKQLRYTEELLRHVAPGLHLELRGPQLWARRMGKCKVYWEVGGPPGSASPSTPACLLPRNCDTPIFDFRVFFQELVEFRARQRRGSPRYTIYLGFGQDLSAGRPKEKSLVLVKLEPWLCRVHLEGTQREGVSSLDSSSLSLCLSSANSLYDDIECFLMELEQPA
Technique: protein-binding microarray
Form: double-stranded DNA, one strand shown
Sample: in vitro
Concentration: 2200 nM top
Notes: 60-bp whole probe
With: salmon DNA 0.4 mg/ml
Relative to: random background probes
Reading: higher = stronger binding
Measurement: fitted relative affinity
Constant ends, left off below: GCCTAGCAC … GTCTTGATTCGCTTGACGCTGCTG
GACGGTCTCGGACTGAGGACGTGCTAG: -0.449 z-score
GACGGTATCCGTATCCTGACGTGCTAG: 0.777 z-score
TCAAAGTTCATGTTCAAACTGTGCTAG: 0.0805 z-score
TCATCTGTCATGTTTGTCACTGTGCTA: 1.54 z-score
TTCTGAAGCAGAGCCCTGTTGTGCTAG: -0.377 z-score
GACGGTCTCCTACTGCTGATGTGCTAG: 0.591 z-score
TCATATACACACTATAGTACTGTGCTA: 0.944 z-score
GACGGACTGGGGAATGGGGACGTGCTA: -0.594 z-score
TCATTTTTACTTTCTGAACTGTGCTAG: 3.83 z-score
GACGGTATCGACTTTCGTGACGTGCTA: 1.89 z-score
GACGAGTTCAGTCTCGAGACGTGCTAG: 0.141 z-score
GACGATTTCGGTATCGGGACGTGCTAG: 4.07 z-score
TCATTTTTTTTTTTTTTACTGTGCTAG: 1.96 z-score
TTAGATTTCAGTCTCGAGTAGTGCTAG: 0.709 z-score
GACGGTATCGACTTACGGGACGTGCTA: 0.617 z-score
GATGAACTGAGTCTCGAGACGTGCTAG: 0.103 z-score
TCAACTTTCTTTTTTTCACTGTGCTAG: 4.99 z-score

Series 3
Target: Ras GTPase-activating protein-binding protein 1, C-terminal RGG region (G3BP1, Homo sapiens, UniProt Q13283)
Sequence of UniProt Q13283 (whole entry, looked up): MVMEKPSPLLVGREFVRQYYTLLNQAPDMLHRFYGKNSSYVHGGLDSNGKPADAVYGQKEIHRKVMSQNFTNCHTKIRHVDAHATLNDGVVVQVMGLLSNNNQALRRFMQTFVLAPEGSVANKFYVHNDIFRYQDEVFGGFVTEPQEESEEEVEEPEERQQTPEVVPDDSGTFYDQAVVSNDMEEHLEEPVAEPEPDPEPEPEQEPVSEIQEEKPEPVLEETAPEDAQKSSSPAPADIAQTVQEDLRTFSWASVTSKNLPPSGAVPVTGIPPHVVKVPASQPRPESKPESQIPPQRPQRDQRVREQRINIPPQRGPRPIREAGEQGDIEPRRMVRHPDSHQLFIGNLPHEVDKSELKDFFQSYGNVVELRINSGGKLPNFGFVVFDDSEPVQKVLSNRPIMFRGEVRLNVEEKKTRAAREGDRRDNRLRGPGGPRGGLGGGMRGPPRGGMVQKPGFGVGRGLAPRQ
Technique: RNA Bind-n-Seq
Form: RNA
Sample: in vitro
Concentration: 1 µM
Notes: whole 134-nt RNA, ends assumed
With: 150 mM KCl
Relative to: input library
Reading: higher = stronger binding
Measurement: log2 enrichment
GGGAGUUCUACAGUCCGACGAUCUGCCUCGGGAGGAGCUGUUUGUGACAUCCAAGCUGUGGAACACCAAGCACCACCCCGAGGAUGUGGAGCCUGCCCUCCGGAAGACUCUGGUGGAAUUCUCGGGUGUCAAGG: -1.86
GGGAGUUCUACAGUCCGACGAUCAAGUCCUGUGCUACACAUCGUAUGUACCGAAUCGGGUUUGGGAAAAAGGGUUUGGGAAAGUAUUAUGUUACGCCGUUCGGAUCUGCACUUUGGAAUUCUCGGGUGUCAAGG: 2.03
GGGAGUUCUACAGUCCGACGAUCCCUGUGCUACACAUCGUAUGUACCGAAUCGGGGUUUUUGGGGUUUUUGGGGAAAAAGGGGAAAGUAUUAUGUUACGCCGUUCGGAUCUGCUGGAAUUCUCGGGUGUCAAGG: 0.146
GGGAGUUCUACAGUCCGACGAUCUCCUGUGCUACACAUCGUAUGUACCGAAUCAAAUUUUUUUAAACCCAAAUUUUUUUAAAAAAGUAUUAUGUUACGCCGUUCGGAUCUGCAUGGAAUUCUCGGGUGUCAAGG: -0.45
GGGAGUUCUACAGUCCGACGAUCCACAGACAACACGCACCCACACAGAAAAAGAGGGAAGGGGUUGGGAUGGGGACAGGGUGCACAGCAGGGCGGGGUAGGACCCCAGCCCCUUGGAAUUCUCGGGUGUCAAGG: -0.44
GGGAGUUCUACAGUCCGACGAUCCUCAAGUCCUGUGCUACACAUCGUAUGUACCGAAUCGGUUGGGUUGGGUUGGGGAAAGUAUUAUGUUACGCCGUUCGGAUCUGCACUUCCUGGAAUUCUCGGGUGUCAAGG: 0.196
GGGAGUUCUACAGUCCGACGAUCUCCUGUGCUACACAUCGUAUGUACCGAAUCGGGGUUUUUGGGGUGGGGAAAAAAAGGGGAAAGUAUUAUGUUACGCCGUUCGGAUCUGCAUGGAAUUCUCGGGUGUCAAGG: 1.51
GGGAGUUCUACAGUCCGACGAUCUGGGAGGUGGAUUUUGUUUAUUUUUUUAGCUCAUUUCCAGGGGUGGGAAUUUGUUUUUAAUAUGUGUCAUGAAUAAAGUUGUUUUUGAAAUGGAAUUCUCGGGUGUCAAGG: 2.81
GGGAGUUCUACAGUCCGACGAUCUAACUUUAGAGGAGGAUCUGAUGGAUAUGGCAGUGGACGUGGAUUUGGGGAUGGCUAUAAUGUGUAUGGAGGAGGACCUGGAGGUGGCAAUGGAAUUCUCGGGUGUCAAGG: -0.712

Series 4
Target: Centromere-binding protein 1, full length, N-terminal tag (CBF1, Saccharomyces cerevisiae, UniProt P17106, residues 1-351)
Sequence of UniProt P17106 (whole entry, looked up): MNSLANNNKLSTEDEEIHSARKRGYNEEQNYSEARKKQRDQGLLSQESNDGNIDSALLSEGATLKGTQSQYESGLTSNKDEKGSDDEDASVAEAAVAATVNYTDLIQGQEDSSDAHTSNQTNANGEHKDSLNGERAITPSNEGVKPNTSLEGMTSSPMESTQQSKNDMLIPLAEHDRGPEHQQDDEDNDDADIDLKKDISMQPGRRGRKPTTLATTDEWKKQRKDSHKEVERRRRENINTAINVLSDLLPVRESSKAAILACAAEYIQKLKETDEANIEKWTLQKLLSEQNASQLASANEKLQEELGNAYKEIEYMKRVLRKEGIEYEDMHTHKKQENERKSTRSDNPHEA
Technique: protein-binding microarray
Form: double-stranded DNA, one strand shown
Sample: in vitro
Concentration: 0.8 µM
Notes: whole 60-bp probe, no competitor
Reading: higher = stronger binding
Measurement: fluorescence intensity
CTAAAATGTGGACATGATGACATAAGGTATGAGTTCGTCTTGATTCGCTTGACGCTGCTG: 568 a.u.
CTATGCAGTAGGGAGCTCATGACAGCAAGTACATTCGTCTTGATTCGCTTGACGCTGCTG: 574 a.u.
TGTACGAAGCTATGTGGTCACGTTATAGTAGTTAGGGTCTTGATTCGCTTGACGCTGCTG: 3670 a.u.
GAACACGCTATTTGTCATGCGAGGGAAATCCAGTAGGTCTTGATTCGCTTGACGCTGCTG: 676 a.u.
GAAAAAAAACCAGATGACGTGGATACTAAGTACTAGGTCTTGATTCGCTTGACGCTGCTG: 785 a.u.
GAATATTTTCTCCCACACGAGGATTCTGTGGTTTAGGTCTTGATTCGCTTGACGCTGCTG: 545 a.u.
CTAAGAGAAGACCCCCACGTGCCCTAAAAATAATTCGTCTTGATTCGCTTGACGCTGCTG: 5590 a.u.
GAAGGAAAAAGGTTTGTCACGAGCACCTAACTATAGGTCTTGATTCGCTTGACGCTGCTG: 1250 a.u.
TGTACGAAGCTATGTGACACGGTTATAGTAGTTAGGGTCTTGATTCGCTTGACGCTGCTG: 581 a.u.
CTATCAAACCTTCACCTGGTGGTGCGTATCATTTTCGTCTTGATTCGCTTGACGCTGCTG: 565 a.u.
TGTACGAAGCTATTGCCCGTGTATATAGTAGTTAGGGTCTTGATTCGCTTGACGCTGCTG: 542 a.u.
CTACCACACTGACGGGGTCACGTGTGTTTATTCTTCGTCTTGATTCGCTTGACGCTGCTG: 18300 a.u.
GAAAATTTTGAGAGGTTGGTGATGAAGTATAATTAGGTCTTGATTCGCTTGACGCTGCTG: 513 a.u.
GAAAAAGGGTGCTGAATCGTGATCACGACCCGCTAGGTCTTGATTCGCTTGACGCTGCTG: 2830 a.u.
CTAAGGTTAAGAAATAGCATCAGATGTAATGGATTCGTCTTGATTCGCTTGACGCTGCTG: 491 a.u.
CTACAAAAGTACAAACACGGGGAAAGAGAGCCATTCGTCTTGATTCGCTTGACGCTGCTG: 520 a.u.
CTATTAATTATCTAACGCGTGCTTCGTCCTACTTTCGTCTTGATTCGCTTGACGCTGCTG: 744 a.u.
CTAAATCCAATATATACTCACATGTAACAACTTTTCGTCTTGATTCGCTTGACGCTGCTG: 805 a.u.
CTACGCGTTATTTTTCGCGTGACATAATAGAAATTCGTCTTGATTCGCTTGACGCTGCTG: 1450 a.u.

For quick reference, copied from above (series 4):
CTATCAAACCTTCACCTGGTGGTGCGTATCATTTTCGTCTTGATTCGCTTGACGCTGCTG: 565 a.u.
GAAGGAAAAAGGTTTGTCACGAGCACCTAACTATAGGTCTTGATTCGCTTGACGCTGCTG: 1250 a.u.
CTAAAATGTGGACATGATGACATAAGGTATGAGTTCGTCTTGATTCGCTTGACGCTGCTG: 568 a.u.
TGTACGAAGCTATGTGACACGGTTATAGTAGTTAGGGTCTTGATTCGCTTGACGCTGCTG: 581 a.u.
CTACAAAAGTACAAACACGGGGAAAGAGAGCCATTCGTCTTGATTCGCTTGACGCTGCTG: 520 a.u.
TGTACGAAGCTATGTGGTCACGTTATAGTAGTTAGGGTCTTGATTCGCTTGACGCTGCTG: 3670 a.u.
GAAAAAGGGTGCTGAATCGTGATCACGACCCGCTAGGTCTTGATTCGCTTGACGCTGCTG: 2830 a.u.
